Measured values gathered from unrelated publications.
Every numbered part comes from another study and shows a few of its results, in no order.

Series 1
Target: Interferon regulatory factor 5, full length, phosphomimetic (IRF5, Homo sapiens, UniProt Q13568-2, residues 1-514, S451D/S453D/S456D/S462D)
Technique: protein-binding microarray
Form: double-stranded DNA, one strand shown
Medium: in vitro
Concentration: 940 nM top
Setting: 60-bp whole probe
Added: salmon DNA 0.4 mg/ml
Baseline: random background probes
Reading: higher = stronger binding
Shared flanks, not repeated: GCCTAGCAC … GTCTTGATTCGCTTGACGCTGCTG
Under “fitted relative affinity”, `GACGTACTGGACTTTCGGGACGTGCTA` is recorded as 0.404 z-score.
`GACGATTTCAGTTCCGAGACGTGCTAG`: “fitted relative affinity” 0.806 z-score.
`GACGATTTCGGGACTGAAGACGTGCTA` — result for “fitted relative affinity”: -0.2 z-score.
`GACGATATCAGTTTCGGGACGTGCTAG`: “fitted relative affinity” 4.14 z-score.
Under “fitted relative affinity”, `AGCTATCACTATTCTAGGGAAGTGCTA` is recorded as 0.3 z-score.
`TTAGGTTTCGACCCTGGGTTAGTGCTA`: “fitted relative affinity” 7.6 z-score.
Under “fitted relative affinity”, `GACGATTTTAGACTGGAGACGTGCTAG` is recorded as -0.301 z-score.
`TTCGGTATCCTTTTCCTTTAGTGCTAG` — result for “fitted relative affinity”: 1.16 z-score.
`TTAGATTTCGGGTTTCGAATAGTGCTA` — result for “fitted relative affinity”: 2.32 z-score.
`GACGGACTGCTTTTCCTAACGTGCTAG` — result for “fitted relative affinity”: -0.397 z-score.
`TTAGGTTGCGACACTGGGTTAGTGCTA`: “fitted relative affinity” 0.399 z-score.
`TTAGAACTGGGGGTTCGATTAGTGCTA` — result for “fitted relative affinity”: 0.942 z-score.
`TCAATTCCTGATCTCTGACTGTGCTAG`: “fitted relative affinity” 0.31 z-score.
`TTTGGACTGCTTTTCCTTTAGTGCTAG`: “fitted relative affinity” -0.000931 z-score.
`AACTAAAGAGACCACAAAAAGTGCTAG`: “fitted relative affinity” 0.332 z-score.
For `TCAGTCACCCATCTCAAACTGTGCTAG`, “fitted relative affinity” read 0.313 z-score.
Under “fitted relative affinity”, `TTGTTTTTTTCTATATGCAAGTGCTAG` is recorded as 1.59 z-score.
For `TTAGATATCAGTTACGATTAGTGCTAG`, “fitted relative affinity” read 0.157 z-score.
`TCATGTCTGTAGCTCATACTGTGCTAG` — result for “fitted relative affinity”: -0.458 z-score.
`GACGGTTTCCTTTTCTTGACGTGCTAG`: “fitted relative affinity” 2.34 z-score.
`GACGGACTGGGGTTTCAGGACGTGCTA` — result for “fitted relative affinity”: 0.356 z-score.
Under “fitted relative affinity”, `TCAAGGCCAGGGTTTCTGTTGTGCTAG` is recorded as 0.58 z-score.
For `GACGGTATAGACTTTCGGGACGTGCTA`, “fitted relative affinity” read 0.623 z-score.
For `TTAGAACTGAGTTTCCATTAGTGCTAG`, “fitted relative affinity” read 0.337 z-score.
Under “fitted relative affinity”, `CATCGTAAGCAAAAATGATTGTGCTAG` is recorded as -0.542 z-score.

Series 2
Target: Fragile X messenger ribonucleoprotein 1, C-terminal low-complexity region (Fmr1, Mus musculus, UniProt P35922)
Technique: RNA Bind-n-Seq
Form: RNA
Medium: in vitro
Concentration: 200 nM
Setting: whole 134-nt RNA, ends assumed
Added: 150 mM LiCl
Baseline: input library
Reading: higher = stronger binding
All molecules: 7-deaza-guanosine replaces G
For `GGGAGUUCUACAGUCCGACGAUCGUCCUGUGCUACACAUCGUAUGUACCGAAUCAAAUUUUUAAAUUUUUAAACCCCCAAAAAAGUAUUAUGUUACGCCGUUCGGAUCUGCACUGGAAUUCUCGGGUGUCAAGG`, the log2 enrichment was 0.624.
The log2 enrichment of `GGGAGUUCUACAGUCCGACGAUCAGUCCUGUGCUACACAUCGUAUGUACCGAAUCGGGGUUUGGGGAGGGGUUUUUGGGGAAAGUAUUAUGUUACGCCGUUCGGAUCUGCACUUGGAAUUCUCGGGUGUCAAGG` is reported as -0.552.
`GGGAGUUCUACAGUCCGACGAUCAAGUCCUGUGCUACACAUCGUAUGUACCGAAUCGGGCCCGGGGCCCGGGGCCCGGGGAAAGUAUUAUGUUACGCCGUUCGGAUCUGCACUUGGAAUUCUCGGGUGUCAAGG` has a log2 enrichment of -2.47.
With `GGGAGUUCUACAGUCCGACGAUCGCAGGAAGUAAAAACAAAUGGAAAUGCUUCGGAUAGUGGCAGGGGAAAGGGUUGCUAAGGAAAGGGUGGGAUGGGAGUGGGUAAAGAGUUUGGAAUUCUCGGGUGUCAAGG` the log2 enrichment was 1.67.
The log2 enrichment of `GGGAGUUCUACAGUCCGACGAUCGUCCUGUGCUACACAUCGUAUGUACCGAAUCAAAUUUUUUUAAAUUUUUAAAUUUAAAAAAGUAUUAUGUUACGCCGUUCGGAUCUGCACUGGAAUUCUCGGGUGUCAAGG` is reported as -3.41.
For `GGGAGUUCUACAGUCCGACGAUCGUCCUGUGCUACACAUCGUAUGUACCGAAUCGGGAAAGGGUUUUUGGGAAAAAAAGGGAAAGUAUUAUGUUACGCCGUUCGGAUCUGCACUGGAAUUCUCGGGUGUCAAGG`, the log2 enrichment was -1.08.
`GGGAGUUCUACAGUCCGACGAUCGUCCUGUGCUACACAUCGUAUGUACCGAAUCGGUUUUUGGGUUUUUGGGGUUUUUGGGGAAAGUAUUAUGUUACGCCGUUCGGAUCUGCAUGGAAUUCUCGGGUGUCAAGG` has a log2 enrichment of -0.855.
The log2 enrichment of `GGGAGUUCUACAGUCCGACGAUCGUCCUGUGCUACACAUCGUAUGUACCGAAUCGGGUUUUUUUGGGAGGGUUUUUUUGGGAAAGUAUUAUGUUACGCCGUUCGGAUCUGCACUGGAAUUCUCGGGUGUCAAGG` is reported as -0.418.
With `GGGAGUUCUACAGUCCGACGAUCUGGGAGGUGGAUUUUGUUUAUUUUUUUAGCUCAUUUCCAGGGGUGGGAAUUUUUUUUUAAUAUAUGUCAUGAAUAAAGUUGUUUUUGAAAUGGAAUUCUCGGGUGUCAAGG` the log2 enrichment was 0.182.
`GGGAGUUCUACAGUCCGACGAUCACCAUGCAGGUGGGCAUCUUUGGGAAGUGGGGCAAGGGGGGGAUAGGGAGGGGGGUAACACUUUGGGAACAAAUGGUCCCAGGUCGUUUCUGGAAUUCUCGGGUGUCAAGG` has a log2 enrichment of 1.47.
For `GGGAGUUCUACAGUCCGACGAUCCCUGUGCUACACAUCGUAUGUACCGAAUCGGGGAAAAAAGGGGAAAAAAGGGAAAAAAGGAAAGUAUUAUGUUACGCCGUUCGGAUCUGCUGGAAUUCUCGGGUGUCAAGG`, the log2 enrichment was 0.373.

Series 3
Target: Histone acetyltransferase KAT6A, both winged helices, GST fusion (KAT6A, Homo sapiens, UniProt Q92794, residues 1-181)
Technique: protein binding microarray
Form: double-stranded DNA, one strand shown
Medium: in vitro
Concentration: not given
Setting: 8-mer, flanks averaged, mean of 2 arrays, mostly near background
Baseline: not given
Reading: higher = stronger binding
Construct (chain): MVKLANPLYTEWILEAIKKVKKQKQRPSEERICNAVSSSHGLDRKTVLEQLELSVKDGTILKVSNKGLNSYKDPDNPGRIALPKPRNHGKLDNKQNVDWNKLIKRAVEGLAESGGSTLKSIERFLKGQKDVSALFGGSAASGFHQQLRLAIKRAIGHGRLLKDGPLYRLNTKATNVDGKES
`ACCCCAAA` has an E-score of -0.197.
For `CTGTGGTC`, the E-score was -0.0497.
`GCATGGTA` has an E-score of 0.0129.
With `GAGCTTAC` the E-score was -0.0142.
With `CCAGACTA` the E-score was -0.184.
`GAGTTTAC` gave an E-score of -0.0256.
With `ACCAAGGT` the E-score was -0.153.
For `ATGAGTCC`, the E-score was 0.0438.
`ACGACTAC` gave an E-score of -0.0977.
`CTAACCCA` has an E-score of -0.171.
For `ATTGCTGG`, the E-score was -0.123.
`GATGCTGA` gave an E-score of -0.136.
`AACTCACG` gave an E-score of -0.0478.
For `ATTAGCCC`, the E-score was -0.0104.
`GAAGTCAC` gave an E-score of -0.0202.
With `AACGCAGA` the E-score was 0.0952.
The E-score of `ACGCGCTC` is reported as 0.298.
The E-score of `CCGATCAC` is reported as 0.122.
With `CCACGCTC` the E-score was 0.0134.
The E-score of `ATGTTGCG` is reported as 0.127.
`GGATGCGA` gave an E-score of 0.15.
With `GCAGGCCA` the E-score was -0.0808.
`CGGTCAGC` gave an E-score of 0.116.
`ATGGCCAA` has an E-score of -0.165.
With `CTACGGAA` the E-score was 0.207.

Series 4
Target: RNA binding protein fox-1 homolog 2, RRM domain, GST-SBP tag (RBFOX2, Homo sapiens, UniProt O43251-10, residues 100-194)
Technique: RNA Bind-n-Seq
Form: RNA
Medium: in vitro
Concentration: 365 nM
Setting: natural RNA segment, single round, ends assumed
Baseline: no-protein control
Reading: higher = stronger binding
Target sequence (chain): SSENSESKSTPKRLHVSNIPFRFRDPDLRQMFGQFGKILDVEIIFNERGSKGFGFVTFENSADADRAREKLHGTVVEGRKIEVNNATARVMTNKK
For `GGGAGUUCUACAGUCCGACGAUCAUCCAACGGAAUAUAAUCAGUUUUCAUUCAUUCCAGUGCCUAGUUAAAUCUAACCUGACUUAAACAUAUGCCUGUUUUUAUGUUUACCUAUAAUUUUCAUAUAGCCGUAUUGGAAUUCUCGGGUGCCAA`, “RBNS enrichment (R)” read 0.969.
`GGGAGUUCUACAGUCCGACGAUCAAGGUCAUGAGGGCAGUCUCCCAGACUGCAGGCCUGAGUAAGUGUUGAGUUUUGCAUAAACACAAACUGUUCAUCCACAGCACUGCUCAAUCUCCUUCUAUCCCUCCUCCUGGAAUUCUCGGGUGCCAA`: “RBNS enrichment (R)” 0.294.
`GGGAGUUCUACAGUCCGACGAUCCUCGGCCACACUGCCCCUUGUGGCCUUCUCGGGACAUGUGGUAACUGACUUGCUCUCAGGCCCACCCGCAGCUUUUCCAAAUACCUGCAGCCUUCAGCCCUGCUGCCCUGUGGAAUUCUCGGGUGCCAA` — result for “RBNS enrichment (R)”: 2.3.
`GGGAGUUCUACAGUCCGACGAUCUGGCAUAAAAAUGUGAUACACUUAGAGACAUUUUGUUUAUUGCAUAUAAAUCUAAUUUUUCCAUAAAUUAGAUUUAUGAUAUUUUCAUAAAGCACUUGAUUAGUUUUUCAUGGAAUUCUCGGGUGCCAA` — result for “RBNS enrichment (R)”: 0.72.
Under “RBNS enrichment (R)”, `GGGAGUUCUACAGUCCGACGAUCAAAAUUACCUAUCCUGUAAAAAGACUGGUGAAAUUCAACAUGUUUUAAAUAAUUUAAUUGCAUUAUAGCAUAUAAACUAUAAAUGAAAAUGAUCUUUGUCUUUCCUUUAUUGGAAUUCUCGGGUGCCAA` is recorded as 0.92.
`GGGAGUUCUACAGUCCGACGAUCCACAUUUUGCAUUCUGCAUUGUUGUCUUAGAGCACACACACGUUAGACAGCGGGUUGCAGCCACCCCACACUGACCGGCCGCUGAGGAGCAGAUAACCACUUGUUCUUUAUGGAAUUCUCGGGUGCCAA` — result for “RBNS enrichment (R)”: 1.28.
Under “RBNS enrichment (R)”, `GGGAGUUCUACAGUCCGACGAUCGCAGCGCGGCUGUGCUGUGCUGGGGAGGCAGCCGUUCCUUCGGGGGUCCUUGGGCCUGCAGUCCCCUCAUACUCACCCUUCACCCAACAUAUUUUCCGGUGCUGAUAUGUUGGAAUUCUCGGGUGCCAA` is recorded as 0.224.
`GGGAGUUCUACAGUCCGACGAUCGAGGUGAUGCUGGCUACAGCCCUGGCAGCCCAUGGCAACUCAAAGUGCCUUCCAAACCAAACUGCCCCUCAUGAGGUUAGGGUCCCCCACCCUCCACCUGCCCAGAGGCCUGGAAUUCUCGGGUGCCAA` — result for “RBNS enrichment (R)”: 0.221.
`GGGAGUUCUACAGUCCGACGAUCCGGCUGCGACUUCAGAAGCGAGGCACAGGCGGUGUGGACACGGCUGCGGUGGGCGGGGUCUUCGACGUCUCCAACGCUGACCGCCUGGGCUUCUCAGAGGUGGAGCUGGUUGGAAUUCUCGGGUGCCAA`: “RBNS enrichment (R)” 0.599.

Some of these lines once more (series 3):
The E-score of `ACGCGCTC` is reported as 0.298.
With `CTACGGAA` the E-score was 0.207.
The E-score of `CCGATCAC` is reported as 0.122.
For `ATGAGTCC`, the E-score was 0.0438.
`GAGTTTAC` gave an E-score of -0.0256.
With `ACCAAGGT` the E-score was -0.153.
`GATGCTGA` gave an E-score of -0.136.
`GCATGGTA` has an E-score of 0.0129.
